# Earlier results as cited in several papers.
# Compare with care: the assays were run in different laboratories. ± marks the error that the study gave.
# Chain of UniProt P28221 (whole entry, looked up): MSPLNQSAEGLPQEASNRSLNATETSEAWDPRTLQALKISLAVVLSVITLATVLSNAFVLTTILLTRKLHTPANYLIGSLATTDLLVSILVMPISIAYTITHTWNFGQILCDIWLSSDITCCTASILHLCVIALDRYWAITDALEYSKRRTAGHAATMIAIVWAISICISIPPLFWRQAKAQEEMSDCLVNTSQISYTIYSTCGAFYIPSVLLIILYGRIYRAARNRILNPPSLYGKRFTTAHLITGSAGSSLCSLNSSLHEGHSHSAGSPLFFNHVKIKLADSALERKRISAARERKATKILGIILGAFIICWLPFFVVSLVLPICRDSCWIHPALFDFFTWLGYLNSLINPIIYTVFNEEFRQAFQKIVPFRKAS
# Chain of UniProt P35368 (whole entry, looked up): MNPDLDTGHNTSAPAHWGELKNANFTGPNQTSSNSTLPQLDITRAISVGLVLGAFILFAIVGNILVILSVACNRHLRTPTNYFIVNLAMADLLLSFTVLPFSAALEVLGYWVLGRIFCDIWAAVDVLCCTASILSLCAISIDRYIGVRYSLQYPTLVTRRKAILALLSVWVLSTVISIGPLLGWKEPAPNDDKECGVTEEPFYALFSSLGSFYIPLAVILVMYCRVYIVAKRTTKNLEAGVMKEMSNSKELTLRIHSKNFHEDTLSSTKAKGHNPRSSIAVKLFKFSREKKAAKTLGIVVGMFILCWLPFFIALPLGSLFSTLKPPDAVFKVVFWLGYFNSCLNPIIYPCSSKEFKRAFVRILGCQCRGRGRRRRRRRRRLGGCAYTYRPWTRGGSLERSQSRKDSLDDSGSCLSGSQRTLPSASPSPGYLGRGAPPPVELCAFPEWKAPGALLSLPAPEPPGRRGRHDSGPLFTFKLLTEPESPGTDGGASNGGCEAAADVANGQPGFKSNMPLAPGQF
SMILES,target,test,test system,setting,measurement,result
CCCC(C(=O)c1ccc2c(c1)OCO2)N1CCCC1 (stereo not drawn),"serotonin transporter, rat","serotonin uptake, inhibitor",brain synaptosomes,,IC50,3.35 ± 0.305 µM
C=CCN(CC=C)CCc1c[nH]c2ccccc12,"5-hydroxytryptamine receptor 1D (HTR1D, Homo sapiens, UniProt P28221)",binding,cloned human receptor,together with: [3H]GR125743,Ki,0.689 µM
CNC(C)C(=O)c1ccc(Br)cc1 (stereo not drawn),SERT,uptake,,,IC50,1.8 µM
CN1CC[C@]23c4c5ccc(O)c4O[C@H]2c2ncccc2C[C@@]3(O)[C@H]1C5,mu opioid receptor guinea pig,"muscle contraction, agonist",isolated guinea pig ileum,,IC50,0.523 µM
CNC(C)C(=O)c1ccc(I)cc1 (stereo not drawn),SERT,uptake,,,IC50,1 µM
CCCC(C(=O)c1ccc(O)c(O)c1)N1CCCC1 (stereo not drawn),"dopamine transporter, rat","dopamine uptake, inhibitor",brain synaptosomes,,IC50,0.011 ± 0.001 µM
C=CCN(CC=C)CCc1c[nH]c2ccc(Br)cc12,"Alpha-1B adrenergic receptor (ADRA1B, Homo sapiens, UniProt P35368)",,,,Ki,2.05 µM
CNC(C)C(=O)c1ccc2c(c1)OCO2 (stereo not drawn),"norepinephrine transporter, rat","norepinephrine uptake, inhibitor",brain synaptosomes,,IC50,1.03 ± 0.162 µM
NC1Cc2cc3c(cc2C1)OCO3,noradrenaline transporter,[3H]noradrenaline uptake,synaptosomes,,IC50,1.43 µM
c1ccc(C2(N3CCCCC3)CCCCC2)cc1,muscle nicotinic acetylcholine receptor,inhibitor,,holding potential -60 mV,IC50,20 to 30 µM
CCCC(C(=O)c1ccc2c(c1)OCO2)N1CCCC1 (stereo not drawn),human dopamine transporter,"dopamine uptake, inhibitor",hDAT-expressing cells,,IC50,0.135 µM
COC(=O)[C@H](c1ccc(F)cc1)[C@H]1CCCCN1 (racemic),"dopamine transporter, rat","dopamine uptake, inhibitor",rat brain synaptosomes,together with: [3H]dopamine,IC50,0.142 µM

# A few entries again:
SMILES,target,test,test system,setting,measurement,result
CCCC(C(=O)c1ccc2c(c1)OCO2)N1CCCC1 (stereo not drawn),"serotonin transporter, rat","serotonin uptake, inhibitor",brain synaptosomes,,IC50,3.35 ± 0.305 µM
